Published values pooled from the literature.
Numbered parts are unrelated; each lists some results of a single study. Changes are numbered by the printed parent chain.

Set 1
Target: CREM, bZIP domain (human)
Technique: DHFR protein complementation
Medium: yeast
Setting: single substitutions, most at no-binding floor
Baseline: wild-type JUN-FOS pair
Direction: higher = stronger binding
Parent: JUN, bZIP domain (human); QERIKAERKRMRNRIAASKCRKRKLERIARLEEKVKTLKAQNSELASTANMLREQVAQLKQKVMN; partner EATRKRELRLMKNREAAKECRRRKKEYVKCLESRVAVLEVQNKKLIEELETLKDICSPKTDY
| Substitution | binding fitness [natural log] |
| --- | --- |
| T37L | -1.32 |
| L52V | -1.53 |
| A57Q | -1.44 |
| E44H | -1.35 |
| K39L | -1.42 |
| T37G | -1.54 |
| V56T | -1.47 |
| R30T | -1.39 |
| A40Q | -1.42 |
| K39E | -1.11 |
| Q41H | -1.49 |

Set 2
Target: CCNA2, cyclin fold, Cln2 fusion (human)
Technique: yeast growth competition, sequencing
Medium: yeast
Setting: weak parent motif
Baseline: not given
Direction: higher = stronger binding
Parent: MASTL docking peptide (human); PMIAKNLMCELDE
| Substitution | normalised enrichment score |
| --- | --- |
| M8A | -0.235 |
| E10S | -0.0936 |
| M2Y | 0.378 |
| K5S | -0.615 |
| A4F | -0.106 |
| L11R | -0.296 |
| M8V | -0.202 |
| D12W | 0.0341 |
| M8C | -0.638 |

Set 3
Target: Ras GTPase-activating protein-binding protein 1, full length (G3BP1, Homo sapiens, UniProt Q13283)
UniProt Q13283, sequence (whole entry, looked up): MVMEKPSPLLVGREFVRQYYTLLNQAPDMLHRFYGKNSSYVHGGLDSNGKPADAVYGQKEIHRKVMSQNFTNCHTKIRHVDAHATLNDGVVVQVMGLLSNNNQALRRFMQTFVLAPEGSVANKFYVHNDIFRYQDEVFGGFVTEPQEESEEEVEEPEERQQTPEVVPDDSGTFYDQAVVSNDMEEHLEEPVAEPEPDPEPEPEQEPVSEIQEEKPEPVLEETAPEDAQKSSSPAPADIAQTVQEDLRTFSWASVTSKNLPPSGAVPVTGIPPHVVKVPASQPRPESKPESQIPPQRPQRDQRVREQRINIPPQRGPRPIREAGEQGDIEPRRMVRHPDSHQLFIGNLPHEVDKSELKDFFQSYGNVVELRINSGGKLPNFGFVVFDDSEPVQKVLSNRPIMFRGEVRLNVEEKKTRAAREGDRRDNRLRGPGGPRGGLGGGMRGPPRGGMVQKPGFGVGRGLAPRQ
Technique: RNA Bind-n-Seq
Molecule type: RNA
Medium: in vitro
Tested at: 200 nM
Setting: whole 134-nt RNA, ends assumed
With: 150 mM KCl
Baseline: input library
Direction: higher = stronger binding
Shared flanks, not repeated: GGGAGUUCUACAGUCCGACGAUC … UGGAAUUCUCGGGUGUCAAGG
| Sequence | log2 enrichment |
| --- | --- |
| CCUGUGCUACACAUCGUAUGUACCGAAUCGGGGAAAAAGGGGUUUGGGGAAAAAAAGGGGAAAGUAUUAUGUUACGCCGUUCGGAUCUGC | 0.124 |
| AAGUCCUGUGCUACACAUCGUAUGUACCGAAUCGGGCCCGGGCCCGGGGCCCGGGGAAAGUAUUAUGUUACGCCGUUCGGAUCUGCACUU | -1.01 |
| AAGACAUUUGUUGUAUUUAUGGUUGUAACUGUACAUGCUUAUCAGGAUGAGACUGAAAGAAGGUAGGGCAAAAAUGGUUGAAUCUAUUUU | -1.09 |
| ACCAUGCAGGUGGGCAUCUUUGGGAAGUGGGGCAAGGGGAGGAUAGGGAGGGGGGUAACACUUUGGGAACAGGUGGUCCCAGGUCGUUUC | 1.12 |
| UGGAAGGUGGAUUUUGUUUAUUUUUUUAGCUCAUUUCCAGGGGUGGGAAUUUUUUUUUAAUAUGUGUCAUGAAUAAAGUUGUUUUUGAAA | -0.248 |
| CUGUGCUACACAUCGUAUGUACCGAAUCGGGCCCCCCCGGGCCCCCCCGGGCCCCCCCGGGGAAAGUAUUAUGUUACGCCGUUCGGAUCU | -1.48 |
| CUCAAGUCCUGUGCUACACAUCGUAUGUACCGAAUCGGGGAAGGAAGGGAAGGGAAAGUAUUAUGUUACGCCGUUCGGAUCUGCACUUCC | -0.0325 |
| UCAAGUCCUGUGCUACACAUCGUAUGUACCGAAUCGGAGGUUUUUGGAAAAAGGAAAGUAUUAUGUUACGCCGUUCGGAUCUGCACUUCC | -1.05 |
| UCCUCAAGUCCUGUGCUACACAUCGUAUGUACCGAAUCGGAAAGGUGGAGGAAAGUAUUAUGUUACGCCGUUCGGAUCUGCACUUCCAGC | -0.775 |
| UCAAGUCCUGUGCUACACAUCGUAUGUACCGAAUCGGGUGGGUUUUUGGGAGGGAAAGUAUUAUGUUACGCCGUUCGGAUCUGCACUUCC | 0.744 |

Single results of other studies
| Molecule | target | assay | system | setting | how to read | measurement | result |
| --- | --- | --- | --- | --- | --- | --- | --- |
| PhoQ, residues 284 288 289 292 302 303 AGGCYF | PhoP, residues 12 14 15 18 19 GHCSL (Escherichia coli, UniProt P23836) | Sort-seq, refers to: YFP reporter | E. coli | PhoQ-PhoP variant library, with: 10 µM Mg2+ | baseline: high Mg2+ state, higher = stronger signaling | fold induction | 14.7 |

A few entries again (set 1):
| Substitution | binding fitness [natural log] |
| --- | --- |
| T37G | -1.54 |
| V56T | -1.47 |
| A57Q | -1.44 |
